Values quoted from earlier work, collected from citations in different studies.
Lines come from different studies, so protocols differ. Numbers after ± are the reported error.
dapA: 4-hydroxy-tetrahydrodipicolinate synthase (dapA, Escherichia coli K-12, UniProt P0A6L2)
UniProt P0A6L2, sequence (whole entry, looked up): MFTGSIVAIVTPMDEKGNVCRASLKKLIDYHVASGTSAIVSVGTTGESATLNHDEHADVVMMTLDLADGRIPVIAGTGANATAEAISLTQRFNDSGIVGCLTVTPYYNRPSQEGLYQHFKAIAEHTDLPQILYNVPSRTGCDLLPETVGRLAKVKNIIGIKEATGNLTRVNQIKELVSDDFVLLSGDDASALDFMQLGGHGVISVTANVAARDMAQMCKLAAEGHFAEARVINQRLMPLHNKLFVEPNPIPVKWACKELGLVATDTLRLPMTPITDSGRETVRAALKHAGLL
UniProt P9WI81, sequence (whole entry, looked up): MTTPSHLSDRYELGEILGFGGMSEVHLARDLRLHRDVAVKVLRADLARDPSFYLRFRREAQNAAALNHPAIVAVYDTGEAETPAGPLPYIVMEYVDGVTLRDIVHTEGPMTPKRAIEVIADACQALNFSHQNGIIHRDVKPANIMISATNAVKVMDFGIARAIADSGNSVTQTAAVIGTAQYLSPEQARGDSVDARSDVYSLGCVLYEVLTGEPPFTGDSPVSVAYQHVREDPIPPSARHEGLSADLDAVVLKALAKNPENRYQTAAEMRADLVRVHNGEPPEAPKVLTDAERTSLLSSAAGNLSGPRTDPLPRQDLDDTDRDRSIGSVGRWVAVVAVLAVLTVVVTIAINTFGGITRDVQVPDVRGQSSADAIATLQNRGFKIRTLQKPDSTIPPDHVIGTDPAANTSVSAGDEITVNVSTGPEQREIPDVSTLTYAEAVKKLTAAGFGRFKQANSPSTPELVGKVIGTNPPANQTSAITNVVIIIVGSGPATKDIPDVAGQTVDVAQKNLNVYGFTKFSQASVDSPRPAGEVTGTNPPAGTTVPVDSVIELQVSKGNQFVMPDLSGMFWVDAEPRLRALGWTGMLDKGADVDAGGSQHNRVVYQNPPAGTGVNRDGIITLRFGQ

O=C(O)C(F)(F)C(F)(F)C(F)(F)C(F)(F)C(F)(F)C(F)(F)F  efficacy (PPARα (human); reporter gene, agonist, Gal4 transactivation; human hepatocarcinoma cell line; baseline: positive control): > 90%
N#CC(=Cc1ccc(O)cc1)C(=O)O  Ki (human neutrophils; anion exchange, competitive inhibitor; with: Cl-): ~9 mM
Nc1cc(C(F)(F)F)c(-c2nc(N3CCOCC3)nc(N3CCOCC3)n2)cn1  remaining activity (pknB (Mycobacterium tuberculosis, UniProt P9WI81); enzyme activity; 10 µM; baseline: untreated): 100%
O=C(O)c1cccc(C(=O)O)n1  inhibition (dapA; coupled; 20 mM): 76%
OCc1ncc2n1-c1ccc(Cl)cc1C(c1ccccc1F)=NC2  logP octanol/water: 2.5
O=S(=O)(O)C(F)(F)C(F)(F)C(F)(F)C(F)(F)C(F)(F)C(F)(F)C(F)(F)C(F)(F)F  efficacy (PPARα (human); reporter gene, agonist, Gal4 transactivation; human hepatocarcinoma cell line; baseline: positive control): 66%
FSLPAQLL  IC50 (HLA class I histocompatibility antigen, B alpha chain, allele B*46:01 (Homo sapiens, UniProt P01889); peptide-MHC binding; peptide): 0.00131 mM
CC(=O)C(=O)O  Km (dapA; substrate, coupled): 260 ± 30 µM

A few entries again:
FSLPAQLL  IC50 (HLA class I histocompatibility antigen, B alpha chain, allele B*46:01 (Homo sapiens, UniProt P01889); peptide-MHC binding; peptide): 0.00131 mM
